Assay results from different studies.
Parts stem from different laboratories: compare values within a part only. Changes are numbered by the printed parent chain.

Set 1 — technique: RNA Bind-n-Seq; molecule type: RNA; sample: in vitro; concentration: 365 nM; reference: no-protein control; direction: higher = stronger binding
Target: RNA binding protein fox-1 homolog 2, RRM domain, GST-SBP tag (RBFOX2, Homo sapiens, UniProt O43251-10, residues 100-194)
Setting: natural RNA segment, single round, ends assumed
Target sequence (chain): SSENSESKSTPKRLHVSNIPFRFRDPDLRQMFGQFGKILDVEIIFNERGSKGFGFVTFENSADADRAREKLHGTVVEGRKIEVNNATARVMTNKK
| Sequence | RBNS enrichment (R) |
| --- | --- |
| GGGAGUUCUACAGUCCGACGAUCGUGUGCAAAGAAAAGAACUGCUUGCAUUUCUUUAUUUCUGUCUCAUAAUUGUCAAAAACCAGAAUUAGGUCAAGUUCAUAGUUUCUGUAAUUGGCUUUUGAAUCAAAGAAUGGAAUUCUCGGGUGCCAA | 0.377 |
| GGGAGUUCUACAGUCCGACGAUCAUUUGUAGAAAGGAGCUCACCAGCUCUGUCAGUGUUUAGUUUCUUCAUCUAUUAAACAGGGUUGGUUUUUCUGGUUGCUAGGGAGACUUAUAGUAAUACAACUUACUAUUUGGAAUUCUCGGGUGCCAA | 0.294 |
| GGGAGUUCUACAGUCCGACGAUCGAUUUUUCUCUCACUAACUGAAAGUGUGUUGAGUCUCUACUUUCUGUCAGUCGUGUAUUAUACUAAGGCAAGUGUUGUAAAGAUGAAUUACAAAUAGAUCUAGGAACUGGUGGAAUUCUCGGGUGCCAA | 0.34 |
| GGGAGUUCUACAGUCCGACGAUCUUCCACACCCUAGUGUGUGUAAGUUCCUCGCUCAUAGGAAAUGCAACAGUUUGAGGGAGCAUUGCCCCUUUGUUCCUGUGAGGACUGGCAGGCUUUGACUGACCUCUCAUUGGAAUUCUCGGGUGCCAA | 0.329 |
| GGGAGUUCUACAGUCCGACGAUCCUCUGUACACAUUUUUAAACCUGGCAAAAGAUGAAGAGAAUAUUGUAAAUAUAAAAGUUUAACUGUUGGUUGUGCCUGCUCUGUUGUGGGGAGGGCGGUCUCUAAAGAAAUGGAAUUCUCGGGUGCCAA | 0.711 |
| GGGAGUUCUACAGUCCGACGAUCUCUGAGCCUCACUGCUGCUGCAAGGUGGGGAAACUGUAAGUGAACCCCUGUGGGUGCGGGGGAGGGUAUCCGGUGCGCAGGGAGGUGGCCAGCGCCCCCGGGCACUGCUGUGGAAUUCUCGGGUGCCAA | 0.702 |
| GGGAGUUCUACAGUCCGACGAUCUUAUUUUGGACAUUCUUAAAUAUGAAUUCUCCAAAGGCAUUUAGCCUUGACUUAAUAUUAAAUCCUAAGGAUUUUAUGUAAGGUUUUUUUGCAACCUAUUUAAUUUUUUUUGGAAUUCUCGGGUGCCAA | 1.24 |
| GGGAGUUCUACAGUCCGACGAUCAGUCAGUCUACCGUAUAGUAACACUGUAUGUCAGUCUACAGACCACACUCUAGUUGUUUUCCAUGAAAGGUAUACAAAUGAAGAAUUUUCUAGCAAAACAUGUUUUUAACUGGAAUUCUCGGGUGCCAA | 0.352 |
| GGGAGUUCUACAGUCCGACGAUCCAGGCCCAGCAGCCAUGCCCCGCCAAGAAGCAUGCUGGGAGUAAGGUCUUUGCCAUCAAGGGUAUUUGGGUGACAUUUCAAAAUUUGUCCUCAUUAAAUGGAUGGGUGGGUGGAAUUCUCGGGUGCCAA | 0.417 |
| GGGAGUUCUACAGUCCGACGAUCGCCCCUGGCCAUCCUUGUUGGAGGCUUCUGGGUGGAACACUGGGUCUAGAACCUUCUUCCGUGGCUCUCAGGCAGCCCAAGGCCCAACACCAGUUGGGAUAAGUGUCAGAUGGAAUUCUCGGGUGCCAA | 0.231 |
| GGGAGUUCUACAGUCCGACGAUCACAACUUCAAAUGCUAACCCGAUGACCCCAGAAAACCGUGUGAGAUUCGUACCGAAGAACCUUGUGGAAUCCCUUUGCUUAGGCCCAACCUGGUCGAUAGCUCGAGAAAGUGGAAUUCUCGGGUGCCAA | 1.08 |
| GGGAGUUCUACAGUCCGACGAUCUCAGCAUUCCCUUGAUAUCAGUCCCCUUCACUGCAGAGCCUUGCCUUUCCCCUCUGCCUGUUUCCUUUUCCUCUCCCAACCCUCUGGUUGGUGAUUCAACUUGGGCUCCAUGGAAUUCUCGGGUGCCAA | 7.98 |

Set 2 — target: CCNB3, cyclin fold, Cln2 fusion (human); technique: yeast growth competition, sequencing; sample: yeast; setting: weak parent motif; reference: not given; direction: higher = stronger binding
Parent: RBL1 docking peptide (human); GSAKRRLFGEDPP; partner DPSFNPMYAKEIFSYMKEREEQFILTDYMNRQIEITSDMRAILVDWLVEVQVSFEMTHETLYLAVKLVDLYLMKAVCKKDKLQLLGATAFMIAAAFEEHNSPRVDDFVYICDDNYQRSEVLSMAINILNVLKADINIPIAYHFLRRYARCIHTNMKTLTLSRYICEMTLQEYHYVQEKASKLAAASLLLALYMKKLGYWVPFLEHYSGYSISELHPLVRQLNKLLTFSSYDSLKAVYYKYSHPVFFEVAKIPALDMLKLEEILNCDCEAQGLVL
| Variant | normalised enrichment score |
| --- | --- |
| GSAKRRLFNEDPP [G9N] | 1.43 |
| GFAKRRLFGEDPP [S2F] | 0.501 |
| GQAKRRLFGEDPP [S2Q] | 0.312 |
| WSAKRRLFGEDPP [G1W] | 1.06 |
| GSAKRRLFGEKPP [D11K] | 0.213 |
| GSAKRHLFGEDPP [R6H] | 0.3 |
| GSNKRRLFGEDPP [A3N] | -0.228 |
| GSAYRRLFGEDPP [K4Y] | 0.338 |
| GSAKVRLFGEDPP [R5V] | 0.346 |
| GSAKRRLFGGDPP [E10G] | 0.201 |
| GSAKRRLFGSDPP [E10S] | 0.796 |
| GSAKRRLFGCDPP [E10C] | 0.625 |
| GSQKRRLFGEDPP [A3Q] | 0.257 |
| HSAKRRLFGEDPP [G1H] | 0.744 |
| GSAKRRLFGEDWP [P12W] | 0.481 |
| SSAKRRLFGEDPP [G1S] | 0.356 |

Set 3 — technique: protein binding microarray; molecule type: double-stranded DNA, one strand shown; sample: in vitro; concentration: not given; reference: not given; direction: higher = stronger binding
Target: Histone acetyltransferase KAT6A, both winged helices, GST fusion (KAT6A, Homo sapiens, UniProt Q92794, residues 1-181)
Setting: 8-mer, flanks averaged, mean of 2 arrays, mostly near background
Target sequence (chain): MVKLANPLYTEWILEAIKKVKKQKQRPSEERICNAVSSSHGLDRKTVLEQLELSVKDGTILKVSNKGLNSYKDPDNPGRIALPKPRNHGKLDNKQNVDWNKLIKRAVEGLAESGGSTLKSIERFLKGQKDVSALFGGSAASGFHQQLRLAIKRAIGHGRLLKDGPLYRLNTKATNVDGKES
| Sequence | E-score |
| --- | --- |
| CGTAACAC | 0.0717 |
| CCACGTTA | -0.0966 |
| CGCTAACC | 0.216 |
| AGCATTTG | -0.114 |
| AGATCGTC | -0.12 |
| AAAAGAAT | 0.0634 |
| ATCGGGAA | 0.19 |
| ATGCTACG | 0.11 |
| GATGGCGA | 0.139 |
| ACGAAGCT | -0.0699 |
| ATAAATTG | -0.00873 |
| GGTACGAC | 0.00848 |
| CACATTGC | 0.0172 |
| AGCTTGAC | -0.113 |
| GGTTCAAC | 0.0811 |
| CCTTAAAA | -0.243 |
| CTTGAAGA | -0.204 |
| GTCGCGGA | 0.246 |
| CATACAAC | -0.0894 |
| CAGGAACC | -0.0887 |
| ATTACGAA | 0.0186 |
| GTCTTAGA | -0.0757 |
| GAATAGGC | -0.134 |

Set 4 — technique: DHFR PCA, deep sequencing; sample: yeast; added: (+)-ABA 4.8 µM; reference: wild-type fitted maximum; direction: higher = stronger binding
Target: ABI1, truncated, D143A, DHFR fusion (Arabidopsis thaliana)
Setting: methotrexate growth selection, single substitutions
Parent: PYL1, truncated, DHFR fusion (Arabidopsis thaliana); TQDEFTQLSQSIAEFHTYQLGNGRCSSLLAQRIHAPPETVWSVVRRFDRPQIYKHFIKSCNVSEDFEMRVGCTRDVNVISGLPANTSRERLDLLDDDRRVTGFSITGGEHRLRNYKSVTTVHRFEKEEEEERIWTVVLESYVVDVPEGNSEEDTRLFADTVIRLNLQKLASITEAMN; partner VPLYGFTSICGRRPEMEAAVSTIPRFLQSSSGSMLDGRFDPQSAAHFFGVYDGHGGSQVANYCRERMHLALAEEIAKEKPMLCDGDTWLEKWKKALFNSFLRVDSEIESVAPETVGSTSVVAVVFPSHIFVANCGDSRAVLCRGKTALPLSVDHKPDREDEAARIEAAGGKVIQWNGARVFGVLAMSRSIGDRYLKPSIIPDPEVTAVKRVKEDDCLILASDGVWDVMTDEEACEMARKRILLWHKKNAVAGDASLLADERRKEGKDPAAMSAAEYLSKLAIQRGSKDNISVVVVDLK
| Variant | relative binding score [%] |
| --- | --- |
| D75S | 71.1 |
| N114P | 5.94 |
| S150T | 87.2 |
| V136W | 40 |
| L164N | 40.3 |
| L28C | 42.2 |
| H16Q | -1.63 |
| E139M | 28.2 |
| R88M | 60.9 |
| E174Q | 61.6 |
| F124H | 26.1 |
| F5N | 43.2 |
| A84M | 32.4 |
| R98A | 50.6 |
| E14Q | 57.7 |
| N77E | 82.9 |
| R32Y | 63 |
